Published values of several laboratories.
Protocols differ between the studies behind these lines. Several values in a cell are separate wells, animals, samples, runs or records. ± marks the error that the study gave.

O=c1ccc2ccccc2o1 — point of departure (HepaRG 3D spheroids; DNA structure; 72 h, high-content imaging): 866 µM
CC(C)C[C@@H](NC(=O)[C@H](N)CCCCN)C(=O)N[C@H](CC(C)C)C(=O)N[C@H](Cc1ccccc1)C(=O)N[C@H](Cc1ccccc1)C(N)=O — viability (NGF-differentiated PC-12 neurons; 20 µM, 24 h; reference: untreated): 99%
Cc1c2ccccc2c(C)c2c1ccc1ccccc12 — micronuclei fold increase (HepaRG; maximum tested, 24 (unit not given); reference: vehicle): 3.6 fold
CC(Nc1nc(N2CCNCC2C)nc2ccccc12)c1ccccc1 (centres unmarked) — cytotoxicity efficacy (Vero-E6; CellTiter-Glo ATP; concentration not given, 72 h, second round 5-point; reference: DMSO 0%, hyamine -100%, more negative, more toxic): 0%
Brc1ccc(-c2nn3c(Cn4cnc5ccccc54)nnc3s2)cc1 — CC50 (HEp-2; cytotoxicity): > 100 µM
Cc1ccc2c(NC(C)c3ccccc3)nc(N3CCNCC3)nc2c1 (centres unmarked) — maximum response (Vero-E6; CellTiter-Glo ATP; 72 h, retest 8-point duplicates; reference: DMSO 0%, hyamine -100%, more negative, more toxic): -17.4%
Cc1cc(C(C)(C)c2ccc(O)c(C)c2)ccc1O — late apoptotic cells (HepG2 spheroids; annexin V-FITC/PI flow cytometry; 10 µM, 24 h): 9 ± 2.55%
Cc1ccc(CCNC2CCCc3c2[nH]c2ccc(C)cc32)cc1 (centres unmarked) — non-viable cells (A549; 50 µM, 23 h): 16.8 ± 13.1%
CCN(N=O)C(N)=O — micronuclei fold increase (HepaRG; maximum tested, 24 (unit not given); reference: vehicle): 2.1 fold
CN1CCCN(S(=O)(=O)c2ccc(-c3ccc4ncnc(Nc5ccc(OCc6cccc(F)c6)c(Cl)c5)c4c3)cc2)CC1 — TC50 (NIH 3T3; PrestoBlue; 2% FBS medium; 96 h): 44 µM
CN(CCC=C1c2ccccc2CCc2ccccc21)N=O — relative survival (TK6; 2.5 µM, 4 h, added: hamster liver S9; reference: vehicle): 71.8%
Oc1ccccc1-c1nc(-c2cccs2)c(-c2cccs2)[nH]1 — cytotoxicity efficacy (Vero-E6; CellTiter-Glo ATP; concentration not given, 72 h, first round 5-point; reference: DMSO 0%, hyamine -100%, more negative, more toxic): -16.9%
CC(C)C[C@@H](NC(=O)[C@H](N)CCCCN)C(=O)N[C@H](CC(C)C)C(=O)N[C@H](Cc1ccccc1)C(=O)N[C@H](Cc1ccccc1)C(=O)N[C@H](C)C(N)=O — viability (NGF-differentiated PC-12 neurons; 5 µM, 24 h; reference: untreated): 99.8%
Cc1cc(Nc2ccnc3ccc(-c4ccc(S(=O)(=O)N5CCOCC5)cc4)cc23)sn1 — TC50 (NIH 3T3; cytotoxicity, PrestoBlue; 96 h, 2% FBS): > 20 µM
O=S(=O)(c1ccc(O)cc1)c1ccc(O)cc1 — late apoptotic cells (HepG2 spheroids, dissociated; annexin V-FITC/PI flow cytometry; 1 µM, 24 h): 15.7 ± 10.5%
Cc1cc(C)cc(-c2ccc(CN3CCCC3C(=O)NCc3cccc(F)c3)cc2)c1 (centres unmarked) — maximum response (Vero-E6; CellTiter-Glo ATP; 72 h, first round 5-point; reference: DMSO 0%, hyamine -100%, more negative, more toxic): -12.8%
CC(c1ccccc1)(c1ccc(O)cc1)c1ccc(O)cc1 — necrotic cells (HepG2 spheroids; annexin V-FITC/PI flow cytometry; 0.01 µM, 96 h): 45.2 ± 12.5%
CN1CCCN(S(=O)(=O)c2ccc(-c3ccc4nncc(Nc5ccc(OCc6cccc(F)c6)c(Cl)c5)c4c3)cc2)CC1 — TC50 (NIH 3T3; PrestoBlue; 2% FBS medium; 96 h): 27 µM
CCCCN(C)CCNC(=O)c1cc(-c2ccc(Cl)s2)nc2ccccc12 — maximum response (Vero-E6; CellTiter-Glo ATP; 72 h, first round 5-point; reference: DMSO 0%, hyamine -100%, more negative, more toxic): -14.7%
Oc1ccc(C(c2ccc(O)cc2)(C(F)(F)F)C(F)(F)F)cc1 — early apoptotic cells (HepG2 spheroids, dissociated; annexin V-FITC/PI flow cytometry; 10 µM, 24 h): 13.1 ± 2.35%
CC(C)C[C@@H](N)C(=O)N1CCC[C@@H]1C(=O)N[C@H](Cc1ccccc1)C(=O)N[C@H](Cc1ccccc1)C(=O)N[C@H](C)C(=O)N[C@H](CCC(=O)O)C(N)=O — viability (NGF-differentiated PC-12 neurons; 160 µM, 24 h; reference: untreated): 91.7%
O=S(=O)(c1ccc(-c2ccc3nccc(Nc4cnccn4)c3c2)cc1)N1CCOCC1 — TC50 (NIH 3T3; cytotoxicity, PrestoBlue; 96 h, 2% FBS): > 20 µM
CC(C)C[C@@H](NC(=O)[C@H](N)CCCCN)C(=O)N1CCC[C@@H]1C(=O)N[C@H](Cc1ccccc1)C(=O)N[C@H](Cc1ccccc1)C(=O)N[C@H](C)C(=O)N[C@H](CCC(=O)O)C(N)=O — viability (NGF-differentiated PC-12 neurons; 5 µM, 24 h; reference: untreated): 100%
Fc1ccc(-c2nn3c(Cn4nnc5ccccc54)nnc3s2)cc1 — CC50 (HEp-2; cytotoxicity): > 100 µM
CC(C)C[C@H](NC(=O)[C@H](C)NC(=O)[C@@H](NC(=O)[C@H](CCCNC(=N)N)NC(=O)[C@H](CC(C)C)NC(=O)[C@H](Cc1c[nH]c2ccccc12)NC(=O)[C@@H]1CCCN1C(=O)[C@@H](N)CCCCN)C(C)C)C(=O)N[C@@H](CS)C(=O)N1CCC[C@H]1C(=O)NCC(=O)O — viability (A549; WST-1; 128 µM, 24 h): 87.6% and 95.5% and 95.9%
C[n+]1cc2c3c(ccc2c2ccc4cc5c(cc4c21)OCO5)OCO3 — selectivity index (differentiated THP-1; 72 h; reference: THP-1 CC50 over EC50): 15
CC(C)C[C@@H](N)C(=O)N1CCC[C@@H]1C(=O)N[C@H](Cc1ccccc1)C(=O)N[C@H](Cc1ccccc1)C(=O)N[C@H](C)C(N)=O — viability (NGF-differentiated PC-12 neurons; 40 µM, 24 h; reference: untreated): 100%
CN(C)c1ccc(C(Nc2nc3c(-c4ccc([N+](=O)[O-])cc4)nn(-c4ccccc4)c3s2)P(=O)(Oc2ccccc2)Oc2ccccc2)cc1 (centres unmarked) — viability (BNL mouse liver cells; SRB; 10 µM, 10% fetal bovine serum): 87.6%
CC(C)C[C@@H](N)C(=O)N[C@H](Cc1ccccc1)C(=O)N[C@H](Cc1ccccc1)C(=O)N[C@H](C)C(N)=O — viability (NGF-differentiated PC-12 neurons; 160 µM, 24 h; reference: untreated): 78.3%
O=NN1CC2CC(C1)c1cc3nccnc3cc12 — relative survival (TK6; 20 µM, 4 h, added: hamster liver S9; reference: vehicle): 112%
O=S(=O)(c1ccc(-c2ccc3nccc(Nc4ccnnc4)c3c2)cc1)N1CCOCC1 — TC50 (NIH 3T3; cytotoxicity, PrestoBlue; 96 h, 2% FBS): > 20 µM
Cc1ccc2nc(C3CCCN(Cc4cccc(-c5cccnc5)c4)C3)[nH]c(=O)c2c1 (centres unmarked) — cytotoxicity efficacy (Vero-E6; CellTiter-Glo ATP; concentration not given, 72 h, retest 8-point duplicates; reference: DMSO 0%, hyamine -100%, more negative, more toxic): 0%
O=S(=O)(c1ccc(-c2ccc3nccc(Nc4ccc(OCc5cccc(F)c5)cc4)c3c2)cc1)N1CCOCC1 — TC50 (NIH 3T3; cytotoxicity, PrestoBlue; 96 h, 2% FBS): > 20 µM
COc1ccc2c(Sc3ccccc3)c(C(=O)NCCCN3CCCCC3)[nH]c2c1 — maximum response (Vero-E6; CellTiter-Glo ATP; 72 h, retest 8-point duplicates; reference: DMSO 0%, hyamine -100%, more negative, more toxic): -19.1%
O=[N+]([O-])c1ccc(Nc2ccnc3ccc(-c4ccc(S(=O)(=O)N5CCOCC5)cc4)cc23)cn1 — TC50 (NIH 3T3; cytotoxicity, PrestoBlue; 96 h, 2% FBS): > 20 µM
Oc1ccc(C2(c3ccc(O)cc3)c3ccccc3-c3ccccc32)cc1 — late apoptotic cells (HepG2 spheroids, dissociated; annexin V-FITC/PI flow cytometry; 1 µM, 24 h): 10.9 ± 1.8%
C[C@H]1COCCN1c1nc(NCc2cccnc2C(F)(F)F)c2cccnc2n1 — IC50 (THP-1 cells; cytotoxicity): > 250 µM
O=C(NCc1cccs1)C1CCCN(Cc2cccc(-c3ccc(F)cc3F)c2)C1 (centres unmarked) — cytotoxicity efficacy (Vero-E6; CellTiter-Glo ATP; concentration not given, 72 h, first round 5-point; reference: DMSO 0%, hyamine -100%, more negative, more toxic): 0%
c1ccc2c(c1)nnn2Cc1nnc2sc(-c3ccc4c(c3)OCCO4)nn12 — CC50 (HEp-2; cytotoxicity): > 100 µM
CC(C)C[C@@H](NC(=O)[C@H](N)CCCCN)C(=O)N[C@H](CC(C)C)C(=O)N[C@H](Cc1ccccc1)C(=O)N[C@H](Cc1ccccc1)C(=O)N[C@H](C)C(=O)N[C@H](CCC(=O)O)C(N)=O — viability (NGF-differentiated PC-12 neurons; 80 µM, 24 h; reference: untreated): 99%
COc1ccc([C@H]2OC[C@H](Cc3ccc(C(C)(C)C)cc3)[C@@H]2CO)cc1OC — LDH release (rat aortic VSMCs; 30 µM, 24.5 h): 14.1 ± 7.1%
CC(C)CC(=O)OC[C@H]1O[C@@](C#N)(c2ccc3c(N)ncnn23)[C@H](O)[C@@H]1O — remaining compound (rat hepatocytes; 5 µM, 15 min): 0%
CC(C)C[C@@H](NC(=O)[C@H](N)CCCCN)C(=O)N[C@@H](C(=O)N[C@H](Cc1ccccc1)C(=O)N[C@H](Cc1ccccc1)C(N)=O)C(C)C — viability (NGF-differentiated PC-12 neurons; 5 µM, 24 h; reference: untreated): 100%
N.N.[Cl][Pt][Cl] — relative survival (HepaRG; maximum tested, 24 h, 72 h recovery; reference: vehicle): 44%
Cc1ccc2[nH]c3c(c2c1)CCCC3NCCc1ccc(Cl)cc1 (centres unmarked) — non-viable cells (A549; 50 µM, 23 h): 69.2 ± 26%
CC[C@H](C)[C@H](NC(=O)[C@H](CCCCN)NC(=O)[C@H](CCC(N)=O)NC(=O)[C@H](CCSC)NC(=O)[C@H](CCC(N)=O)NC(=O)[C@H](CC(C)C)NC(=O)[C@H](CCC(N)=O)NC(=O)[C@H](CO)NC(=O)[C@H](CCCCN)NC(=O)CNC(=O)[C@H](C)NC(=O)[C@@H](N)CC(C)C)C(=O)N[C@@H](Cc1ccccc1)C(=O)N[C@@H](CCCCN)C(=O)N[C@@H](CCCCN)C(=O)N[C@@H](CC(C)C)C(=O)N1CCC[C@H]1C(=O)NCC(=O)N[C@@H](Cc1ccccc1)C(=O)N[C@@H](CCCCN)C(=O)N[C@@H](CCCCN)C(=O)N[C@H](C(=O)N[C@@H](Cc1c[nH]cn1)C(=O)N[C@H](C(=O)N[C@@H](CC(C)C)C(=O)NCC(=O)N[C@@H](Cc1ccccc1)C(=O)N[C@@H](CCCNC(=N)N)C(=O)N1CCC[C@H]1C(=O)N[C@@H](CCCCN)C(=O)N[C@@H](CCCCN)C(=O)O)C(C)C)[C@@H](C)CC — CC50 (THP-1, PMA-differentiated; cell viability, MTT): 133 µM
COc1ccc(Nc2nn3c(-c4ccccc4)ccnc3c2C(=O)Nc2ccc(Cl)cc2)cc1 — viability (WI-38; MTT; serum-free medium; 31.13 µg/mL, 48 h): 97.7%
